# Experimental data gathered from unrelated publications.
# Protocols differ between the studies behind these lines. Several values in a cell are separate wells, animals, samples, runs or records. Numbers after ± are the reported error.
# Crebbp: Crebbp 340-439 (Mus musculus, UniProt P45481)
# UniProt P45481, sequence (whole entry, looked up): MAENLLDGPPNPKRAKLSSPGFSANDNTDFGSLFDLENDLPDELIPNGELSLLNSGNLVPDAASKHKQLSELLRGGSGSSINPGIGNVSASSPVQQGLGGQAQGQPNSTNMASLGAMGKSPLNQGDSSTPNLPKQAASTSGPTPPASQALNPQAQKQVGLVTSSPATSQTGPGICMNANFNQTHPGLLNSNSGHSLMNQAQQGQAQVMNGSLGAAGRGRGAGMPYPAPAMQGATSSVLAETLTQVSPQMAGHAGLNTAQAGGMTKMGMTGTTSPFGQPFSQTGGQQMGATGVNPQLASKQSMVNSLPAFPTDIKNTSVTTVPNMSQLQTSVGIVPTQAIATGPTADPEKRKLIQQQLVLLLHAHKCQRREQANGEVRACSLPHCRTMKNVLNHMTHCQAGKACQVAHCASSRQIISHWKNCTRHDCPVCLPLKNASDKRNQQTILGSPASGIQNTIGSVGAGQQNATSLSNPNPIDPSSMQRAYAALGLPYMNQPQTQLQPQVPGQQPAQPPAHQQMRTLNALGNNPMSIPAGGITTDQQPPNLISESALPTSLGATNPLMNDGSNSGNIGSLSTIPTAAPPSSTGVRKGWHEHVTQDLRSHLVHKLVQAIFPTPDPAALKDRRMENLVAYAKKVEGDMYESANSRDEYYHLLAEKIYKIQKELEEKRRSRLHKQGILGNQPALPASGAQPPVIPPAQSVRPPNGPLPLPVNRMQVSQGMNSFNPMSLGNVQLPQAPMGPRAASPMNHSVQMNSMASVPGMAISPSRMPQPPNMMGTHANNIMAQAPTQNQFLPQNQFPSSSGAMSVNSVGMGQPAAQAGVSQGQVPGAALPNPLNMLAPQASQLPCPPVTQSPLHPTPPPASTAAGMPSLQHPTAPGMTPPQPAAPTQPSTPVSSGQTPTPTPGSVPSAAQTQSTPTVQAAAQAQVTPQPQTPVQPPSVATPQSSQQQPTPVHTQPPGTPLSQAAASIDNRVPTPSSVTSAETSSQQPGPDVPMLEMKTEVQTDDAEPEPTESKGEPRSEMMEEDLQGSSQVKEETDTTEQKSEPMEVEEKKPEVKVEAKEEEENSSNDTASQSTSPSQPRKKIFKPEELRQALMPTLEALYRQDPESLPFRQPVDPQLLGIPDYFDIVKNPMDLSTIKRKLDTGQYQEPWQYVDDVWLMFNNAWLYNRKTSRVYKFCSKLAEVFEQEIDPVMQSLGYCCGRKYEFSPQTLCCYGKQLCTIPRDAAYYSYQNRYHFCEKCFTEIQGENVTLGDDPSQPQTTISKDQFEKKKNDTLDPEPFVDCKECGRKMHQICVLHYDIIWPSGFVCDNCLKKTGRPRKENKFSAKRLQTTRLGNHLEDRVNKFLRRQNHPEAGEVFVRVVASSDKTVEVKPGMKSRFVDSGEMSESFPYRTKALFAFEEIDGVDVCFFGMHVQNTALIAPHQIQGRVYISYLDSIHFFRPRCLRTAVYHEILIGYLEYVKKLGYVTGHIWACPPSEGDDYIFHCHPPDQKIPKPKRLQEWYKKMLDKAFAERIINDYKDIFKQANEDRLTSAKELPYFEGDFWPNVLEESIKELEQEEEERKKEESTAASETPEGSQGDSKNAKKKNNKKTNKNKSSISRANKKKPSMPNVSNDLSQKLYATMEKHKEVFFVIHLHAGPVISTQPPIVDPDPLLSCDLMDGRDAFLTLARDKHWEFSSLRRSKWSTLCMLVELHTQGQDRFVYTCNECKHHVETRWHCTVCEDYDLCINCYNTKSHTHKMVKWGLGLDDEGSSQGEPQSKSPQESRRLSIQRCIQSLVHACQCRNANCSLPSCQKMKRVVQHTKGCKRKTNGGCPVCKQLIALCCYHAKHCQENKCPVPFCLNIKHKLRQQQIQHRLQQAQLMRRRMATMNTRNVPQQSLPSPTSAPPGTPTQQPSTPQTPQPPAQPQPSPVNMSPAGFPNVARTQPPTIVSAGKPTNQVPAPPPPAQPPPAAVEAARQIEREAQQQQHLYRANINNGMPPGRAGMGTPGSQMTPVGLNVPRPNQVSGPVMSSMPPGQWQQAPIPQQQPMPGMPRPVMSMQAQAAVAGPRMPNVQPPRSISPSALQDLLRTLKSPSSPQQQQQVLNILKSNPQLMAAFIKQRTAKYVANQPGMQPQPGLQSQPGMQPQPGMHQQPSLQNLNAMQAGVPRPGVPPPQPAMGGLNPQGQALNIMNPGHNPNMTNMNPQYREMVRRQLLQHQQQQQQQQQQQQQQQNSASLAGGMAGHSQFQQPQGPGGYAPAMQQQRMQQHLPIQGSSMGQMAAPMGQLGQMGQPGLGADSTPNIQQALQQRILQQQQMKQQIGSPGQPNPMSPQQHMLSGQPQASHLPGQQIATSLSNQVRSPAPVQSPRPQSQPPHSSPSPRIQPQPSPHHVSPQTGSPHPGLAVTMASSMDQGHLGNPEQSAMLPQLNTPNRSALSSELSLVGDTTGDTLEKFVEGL
# B1: RPRD1A 134-312 (Homo sapiens, UniProt Q96P16); chain KPRKRTYEQIKVDENENCSSLGSPSEPPQTLDLVRALQDLENAASGDAAVHQRIASLPVEVQEVSLLDKITDKESGERLSKMVEDACMLLADYNGRLAAEIDDRKQLTRMLADFLRCQKEALAEKEHKLEEYKRKLARVSLVRKELRSRIQSLPDLSRLPNVTGSHMHLPFAGDIYSED
# B2: acpP (Escherichia coli, UniProt P0A6A8); 4-DMN-phosphopantetheine; sequence looked up; chain MSTIEERVKKIIGEQLGVKQEEVTNNASFVEDLGADSLDTVELVMALEEEFDTEIPDEEAEKITTVQAAIDYINGHQA
# B3: Pigr 19-135 (Mus musculus, UniProt O70570); chain KSPIFGPQEVSSIEGDSVSITCYYPDTSVNRHTRKYWCRQGASGMCTTLISSNGYLSKEYSGRANLINFPENNTFVINIEQLTQDDTGSYKCGLGTSNRGLSFDVSLEVSQVPELPS
# B4: ERRFI1 330-399 (human, UniProt Q9UJM3); N-terminal FITC; sequence looked up; chain SRTPSPKSLPSYLNGVMPPTQSFAPDPKYVSSKALQRQNSEGSASKVPCILPIIENGKKVSSTHYYLLPE
# B5: CDC48A 1-463 (Arabidopsis thaliana, UniProt P54609); chain MSTPAESSDSKSKKDFSTAILERKKSPNRLVVDEAINDDNSVVSLHPATMEKLQLFRGDTILIKGKKRKDTVCIALADETCEEPKIRMNKVVRSNLRVRLGDVISVHQCPDVKYGKRVHILPVDDTVEGVTGNLFDAYLKPYFLEAYRPVRKGDLFLVRGGMRSVEFKVIETDPAEYCVVAPDTEIFCEGEPVKREDEERLDDVGYDDVGGVRKQMAQIRELVELPLRHPQLFKSIGVKPPKGILLYGPPGSGKTLIARAVANETGAFFFCINGPEIMSKLAGESESNLRKAFEEAEKNAPSIIFIDEIDSIAPKREKTNGEVERRIVSQLLTLMDGLKSRAHVIVMGATNRPNSIDPALRRFGRFDREIDIGVPDEIGRLEVLRIHTKNMKLAEDVDLERISKDTHGYVGADLAALCTEAALQCIREKMDVIDLEDDSIDAEILNSMAVTNEHFHTALGNSN
# B6: YWHAH (Homo sapiens, UniProt Q04917); sequence looked up; chain MGDREQLLQRARLAEQAERYDDMASAMKAVTELNEPLSNEDRNLLSVAYKNVVGARRSSWRVISSIEQKTMADGNEKKLEKVKAYREKIEKELETVCNDVLSLLDKFLIKNCNDFQYESKVFYLKMKGDYYRYLAEVASGEKKNSVVEASEAAYKEAFEISKEQMQPTHPIRLGLALNFSVFYYEIQNAPEQACLLAKQAFDDAIAELDTLNEDSYKDSTLIMQLLRDNLTLWTSDQQDEEAGEGN
# B7: P4HB ab fragment (Homo sapiens); chain DAPEEEDHVLVLRKSNFAEALAAHKYLLVEFYAPWCGHCKALAPEYAKAAGKLKAEGSEIRLAKVDATEESDLAQQYGVRGYPTIKFFRNGDTASPKEYTAGREADDIVNWLKKRTGPAATTLPDGAAAESLVESSEVAVIGFFKDVESDSAKQFLQAAEAIDDIPFGITSNSDVFSKYQLDKDGVVLFKKFDEGRNNFEGEVTKENLLDFIKHN
# B8: Cacna1c 1647-1777 (Mus musculus, UniProt Q01815); sequence looked up; chain NALSLQAGLRTLHDIGPEIRRAISGDLTAEEELDKAMKEAVSAASEDDIFRRAGGLFGNHVTYYQSDSRGNFPQTFATQRPLHINKTGNNQADTESPSHEKLVDSTFTPSSYSSTGSNANINNANNTALGR
# UniProt Q9HAU5, sequence (whole entry, looked up): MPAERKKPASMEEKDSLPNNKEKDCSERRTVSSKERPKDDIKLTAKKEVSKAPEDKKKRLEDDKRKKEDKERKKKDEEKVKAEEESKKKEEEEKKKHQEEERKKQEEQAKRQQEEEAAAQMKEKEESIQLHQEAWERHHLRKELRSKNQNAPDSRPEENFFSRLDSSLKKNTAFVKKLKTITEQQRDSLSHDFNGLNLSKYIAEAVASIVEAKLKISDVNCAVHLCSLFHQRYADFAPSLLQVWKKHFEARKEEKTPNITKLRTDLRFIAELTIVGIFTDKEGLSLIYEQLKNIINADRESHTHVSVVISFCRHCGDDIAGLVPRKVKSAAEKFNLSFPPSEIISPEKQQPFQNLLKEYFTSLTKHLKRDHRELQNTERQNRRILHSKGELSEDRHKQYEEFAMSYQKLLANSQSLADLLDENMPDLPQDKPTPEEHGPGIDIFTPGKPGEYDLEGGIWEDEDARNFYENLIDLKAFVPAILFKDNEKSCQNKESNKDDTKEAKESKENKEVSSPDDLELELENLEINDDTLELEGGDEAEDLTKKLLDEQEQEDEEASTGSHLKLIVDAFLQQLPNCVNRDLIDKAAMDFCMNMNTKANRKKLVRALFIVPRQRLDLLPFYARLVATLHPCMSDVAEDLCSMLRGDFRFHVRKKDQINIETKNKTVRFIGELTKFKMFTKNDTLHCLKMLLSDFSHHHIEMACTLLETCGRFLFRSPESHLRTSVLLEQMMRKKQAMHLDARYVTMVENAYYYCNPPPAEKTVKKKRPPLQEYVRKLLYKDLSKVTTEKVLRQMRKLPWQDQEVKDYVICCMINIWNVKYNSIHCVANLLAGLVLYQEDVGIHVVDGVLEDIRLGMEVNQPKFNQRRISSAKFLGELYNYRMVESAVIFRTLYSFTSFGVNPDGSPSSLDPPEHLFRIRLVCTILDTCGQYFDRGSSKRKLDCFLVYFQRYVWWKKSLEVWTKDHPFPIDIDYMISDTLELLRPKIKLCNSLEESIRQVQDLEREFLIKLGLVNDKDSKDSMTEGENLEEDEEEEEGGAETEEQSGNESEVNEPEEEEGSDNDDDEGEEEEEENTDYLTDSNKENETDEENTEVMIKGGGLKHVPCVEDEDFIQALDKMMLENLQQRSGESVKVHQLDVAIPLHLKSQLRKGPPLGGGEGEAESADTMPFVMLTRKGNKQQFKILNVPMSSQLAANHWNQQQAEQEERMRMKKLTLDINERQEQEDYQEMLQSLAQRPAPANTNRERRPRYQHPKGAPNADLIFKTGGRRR
# UniProt Q5BJF2, sequence (whole entry, looked up): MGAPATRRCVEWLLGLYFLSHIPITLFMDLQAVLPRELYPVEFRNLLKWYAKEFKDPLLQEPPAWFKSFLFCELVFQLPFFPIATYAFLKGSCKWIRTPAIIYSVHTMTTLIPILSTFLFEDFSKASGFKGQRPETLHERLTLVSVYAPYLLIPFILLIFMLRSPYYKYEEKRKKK
# UniProt Q4V3D3, sequence (whole entry, looked up): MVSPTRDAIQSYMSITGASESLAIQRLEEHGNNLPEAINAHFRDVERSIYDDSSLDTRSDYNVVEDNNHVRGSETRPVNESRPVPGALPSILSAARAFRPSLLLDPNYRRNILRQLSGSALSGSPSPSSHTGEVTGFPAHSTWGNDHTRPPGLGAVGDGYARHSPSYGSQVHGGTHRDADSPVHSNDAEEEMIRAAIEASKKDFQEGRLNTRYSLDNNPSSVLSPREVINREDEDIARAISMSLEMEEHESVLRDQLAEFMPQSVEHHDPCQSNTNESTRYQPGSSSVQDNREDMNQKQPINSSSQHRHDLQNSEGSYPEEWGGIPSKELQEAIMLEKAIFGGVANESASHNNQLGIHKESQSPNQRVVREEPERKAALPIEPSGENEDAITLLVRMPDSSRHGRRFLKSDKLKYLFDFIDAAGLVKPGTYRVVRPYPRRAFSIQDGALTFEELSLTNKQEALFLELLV
# UniProt Q9BZI7, sequence (whole entry, looked up): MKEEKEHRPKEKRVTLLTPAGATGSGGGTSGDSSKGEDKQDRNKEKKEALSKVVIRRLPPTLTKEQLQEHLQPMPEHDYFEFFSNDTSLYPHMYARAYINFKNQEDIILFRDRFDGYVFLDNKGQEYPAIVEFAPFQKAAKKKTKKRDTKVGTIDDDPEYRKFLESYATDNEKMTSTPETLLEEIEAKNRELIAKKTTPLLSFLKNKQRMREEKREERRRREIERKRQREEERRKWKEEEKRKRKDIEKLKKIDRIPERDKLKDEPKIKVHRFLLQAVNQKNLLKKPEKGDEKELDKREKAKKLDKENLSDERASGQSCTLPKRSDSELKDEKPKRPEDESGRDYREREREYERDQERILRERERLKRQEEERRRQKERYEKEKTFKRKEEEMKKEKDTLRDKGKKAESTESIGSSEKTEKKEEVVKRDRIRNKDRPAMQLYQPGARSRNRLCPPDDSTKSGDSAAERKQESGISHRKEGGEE
# UniProt P01375, sequence (whole entry, looked up): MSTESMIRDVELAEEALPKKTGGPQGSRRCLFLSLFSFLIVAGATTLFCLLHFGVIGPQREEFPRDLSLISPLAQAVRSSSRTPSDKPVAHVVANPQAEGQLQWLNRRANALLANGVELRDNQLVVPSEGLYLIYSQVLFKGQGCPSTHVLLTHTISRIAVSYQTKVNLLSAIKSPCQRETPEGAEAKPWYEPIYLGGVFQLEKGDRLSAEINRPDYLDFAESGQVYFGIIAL
Molecule,partner,assay,system,setting,Kd
HTN1 fragment alanine substitutions at 20-24,"TMEM97 (Homo sapiens, UniProt Q5BJF2)",SPR,,,22.7 µM
RPSVITCA (VGLL4 (Homo sapiens)),IRF2BP2 fragment (Homo sapiens),ITC,peptide,,3.16 µM and 3.15 µM
B1 (RPRD1A 134-312),"RPAP2 (Homo sapiens, UniProt Q8IXW5)",ITC,,25 °C,> 1000 µM
DLDSDDEY (TELO2 488-494 (Homo sapiens); pS491),"DNAAF2 73-197 (Homo sapiens, UniProt Q9NVR5)",ITC,peptide,,78.1 ± 16.9 µM
B2 (acpP),"fabF (Escherichia coli, UniProt P0AAI5)",fluorescence titration,,,0.89 µM
"KLLITIHDRKEFAKFEEERARAKWDTANNPLYKEATSTFTNITYRGT (ITGB3 742-788 (Homo sapiens, UniProt P05106); sequence looked up)","Tln2 312-408 (Mus musculus, UniProt Q71LX4)",NMR titration,,,438 µM
"FN1 (Homo sapiens, UniProt P02751)","FIBH fragment, N-terminal Alexa Fluor 488 (Bombyx mori)",FCS,,,0.00818 ± 0.00012 µM
B3 (Pigr 19-135),Igha/Jchain CH2-CH3 with J chain P136A (Mus musculus),SPR,,,0.329 µM
ENAH EVH1 domain (Homo sapiens),CEBPB peptide (Homo sapiens),BLI,,,57.2 µM
AP2A2/AP2B1/AP2M1/AP2S1 AP-2 core (Mus musculus),"CCDC32 150-179, HaloTag, Atto488 label (Mus musculus, UniProt Q8BS39)",FP,,,0.61 µM
B4 (ERRFI1 330-399),"EGFR 696-1022 (Homo sapiens, UniProt P00533)",fluorescence polarization,,apparent,5.2 µM
"TNF (Homo sapiens, UniProt P01375)","golimumab IgG, PBS-stressed 14 d, Asn deamidation/succinimide, HC Asn43, LC Asn93, Fc",SPR,,,7.3e-06 µM
GCVRLHESCLGQQVPCCDPAATCYCTGRGDEKLRCYCR (designed peptide AgRP scaffold),ITGA2B/ITGB3 K562 cells,flow cytometry,"designed binder, U87MG",,> 0.1 µM
CACNA1C fragment S1700D (Rattus norvegicus),"CACNA1C IQ motif 1644-1668, fluorescein label (UniProt P15381)",fluorescence polarisation,,,3 ± 1 µM
B5 (CDC48A 1-463),"PUX9 (Arabidopsis thaliana, UniProt Q4V3D3)",ITC,,25 °C,8.2 ± 1.6 µM
B6 (YWHAH),"NEDD4L full length isoform 5, pS342/pS428 (Homo sapiens, UniProt Q96PU5-5)",AUC,,with Ca2+,0.008 µM
"UPF3B (Homo sapiens, UniProt Q9BZI7)","UPF2 (Homo sapiens, UniProt Q9HAU5)",BLI,,,0.0207 µM
"SDLACRLLGQSMDESGLPQLTSYDCEVNAPIQGSGSGSRNLLQGEELLRALDQVN (HIF-1α CTAD 776-826 (GS)2 insertion (Homo sapiens, UniProt Q16665); sequence looked up)",Crebbp,fluorescence polarisation,,,0.12 µM
B7 (P4HB ab fragment),ITGA2B/ITGB3 complex (Homo sapiens),SPR,,,8.2 µM and 6.7 µM
Notch ankyrin domain K152A/R107A (Drosophila),"dx (Drosophila melanogaster, UniProt Q23985)",AUC,,,9.91 µM
YIKTPLGTFPNRHGC (engineered peptide),VPS35/VPS26A/VPS29 retromer complex (Homo sapiens),SPR,peptide,,0.0014 µM
B8 (Cacna1c 1647-1777),"jph2 1-455 (Danio rerio, UniProt A0ACM8QCS2)",ITC,,,6.63 µM
"SDLACRLLGQSMDESGLPQLTSYDCEVNAPIQGSRNLLQGEELLRALDQVN (HIF1A 776-826 (Homo sapiens, UniProt Q16665); sequence looked up)",Crebbp,fluorescence polarisation,,,0.014 µM
